Measurements pooled from the literature.
Compare with care: the assays were run in different laboratories. Several values in a cell are separate wells, animals, samples, runs or records. ± gives the spread as reported.
Cell line: Vero

Cc1ccc(C(=O)c2sc(S)c(-c3nc4ccccc4s3)c2N)cc1 — result for “maximum non-toxic concentration”: 90 µg/mL (cytotoxicity; 72 h).
CC(=O)OCC1OC(n2cnc3c(Cl)nc(Cl)nc32)C2CC=CCC12 (mixture of isomers) has an IC50 of 18.9 µM (cytotoxicity; 3 days).
For CN[C@@H]1[C@H](O)[C@H](NC)[C@H]2O[C@]3(O)[C@H](O[C@@H]2[C@H]1O)O[C@H](C)C[C@@]3(O)CNCc1ccc(OC(F)(F)F)cc1, the IC50 was greater than 100 µg/mL (cytotoxicity, CellTiter-Glo; 72 h).
Cc1ncc([N+](=O)[O-])n1CCOCc1nnc(SCC(=O)c2ccc([N+](=O)[O-])cc2)o1 gave a viability of 104% (cell growth or viability, MTT; 6 µM, 48 h).
CCOC(=O)c1cc(-c2nc3ccccc3s2)c(=O)n(NS(=O)(=O)c2ccc(Cl)cc2)c1N: “maximum non-toxic concentration” 130 µg/mL (trypan blue; 72 h).
O=C(C=CC(Cc1ccccc1)Nc1ccnc2cc(Cl)ccc12)NCC(=O)N1CCNCC1 (stereo not drawn): cytotoxicity “not toxic” (MTT; concentration not given).
The IC50 of CC(=O)OCC1OC(n2ccc(=O)[nH]c2=O)C2CC=CCC12 (mixture of isomers) is reported as greater than 100 µM (cytotoxicity; 3 days).
Under “maximum non-toxic concentration”, O=c1c(-c2nc3ccccc3s2)cc2c(n1NS(=O)(=O)c1ccccc1)CCCCCC2 is recorded as 140 µg/mL (trypan blue; 72 h).
Under “maximum non-toxic concentration”, CC(=O)OC[C@H]1O[C@@H](Sc2sc(C(=O)c3ccc(Cl)cc3)c(N)c2-c2nc3ccccc3s2)[C@H](OC(C)=O)[C@@H](OC(C)=O)[C@H]1OC(C)=O is recorded as 90 µg/mL (cytotoxicity; 72 h).
For Clc1ccc2c(NCCCN3CCN(c4ccnc(N5CCCC5)n4)CC3)ccnc2c1, the IC50 was greater than 4.76 µg/mL (cytotoxicity, neutral red uptake; 48 h).
CC(=O)Nc1ccn(C2OC(COC(C)=O)C3CC=CCC32)c(=O)n1 (mixture of isomers) has an IC50 of greater than 100 µM (cytotoxicity; 3 days).
COc1ccc(C(=O)CSc2nnc(COCCn3c([N+](=O)[O-])cnc3C)o2)cc1F has a viability of 107% (cell growth or viability, MTT; 6 µM, 48 h).
With CN[C@@H]1[C@H](O)[C@H](NC)[C@H]2O[C@]3(O)[C@H](O[C@@H]2[C@H]1O)O[C@H](C)C[C@@]3(O)CNCc1ccc(F)cc1 the IC50 was greater than 100 µg/mL.
CC(=O)OC[C@H]1O[C@@H](Sc2sc(C(=O)c3ccc(C)cc3)c(N)c2-c2nc3ccccc3s2)[C@H](OC(C)=O)[C@@H](OC(C)=O)[C@H]1OC(C)=O: “maximum non-toxic concentration” 100 µg/mL (cytotoxicity; 72 h).
Nc1ccn(C2OC(CO)C3CC=CCC32)c(=O)n1 (mixture of isomers) gave an IC50 of greater than 100 µM (cytotoxicity; 3 days).
With CN[C@@H]1[C@H](O)[C@H](NC)[C@H]2O[C@]3(O)[C@H](O[C@@H]2[C@H]1O)O[C@H](C)C[C@@]3(O)CNCc1ccc(Cl)cc1 the IC50 was greater than 100 µg/mL.
COc1cc(C2COc3cc(O)cc(O)c3C2=NN)c(OC)cc1O (stereo not drawn) has an IC50 of 134 ± 1.56 µM (cytotoxicity, MTT; 72 h, 10% fetal bovine serum).
For NNC(=O)/C=C/c1ccc(N)cc1, the IC50 was 242 ± 0.02 µg/mL (cytotoxicity, MTT).
Cc1cc([N+](=O)[O-])ccc1NC(=O)CSc1nc2ccccc2c(=O)n1-c1ccc(S(N)(=O)=O)cc1 has an IC50 of 927 µg/mL (cytotoxicity, MTT; 2% serum).
For CC(=O)O[C@@H]1[C@@H](OC(C)=O)[C@H](Sc2sc(C(=O)c3ccc(Br)cc3)c(N)c2-c2nc3ccccc3s2)OC[C@H]1OC(C)=O, “maximum non-toxic concentration” read 100 µg/mL (cytotoxicity; 72 h).
For COc1cc(C2COc3cc(O)cc(O)c3C2=NO)c(OC)cc1O (stereo not drawn), the IC50 was 104 ± 25 µM (cytotoxicity, MTT; 72 h, 10% fetal bovine serum).
Cc1ncc([N+](=O)[O-])n1CCOCc1nnc(SCC(=O)c2ccc(O)cc2)o1 has a viability of 106% (cell growth or viability, MTT; 6 µM, 48 h).
Nc1c(C(=O)c2ccc(Cl)cc2)sc(S)c1-c1nc2ccccc2s1 — result for “maximum non-toxic concentration”: 70 µg/mL and 80 µg/mL (cytotoxicity; 72 h).
Cc1ccc(O)c(C=NNC(=N)NO)n1 — result for cytotoxicity: “not toxic” (cell morphology; up to 150 µM).
CCOC(=O)c1cc(-c2nc3ccccc3s2)c(=O)n(NS(=O)(=O)c2ccccc2)c1N: “maximum non-toxic concentration” 110 µg/mL (trypan blue; 72 h).
For CC(=O)OC[C@H]1O[C@@H](Sc2sc(C(=O)c3ccc(Br)cc3)c(N)c2-c2nc3ccccc3s2)[C@H](OC(C)=O)[C@@H](OC(C)=O)[C@H]1OC(C)=O, “maximum non-toxic concentration” read 100 µg/mL (cytotoxicity; 72 h).
Under cytotoxicity, O=c1c(O)c(SCc2ccccc2)ccc(SCc2ccccc2)c1O is recorded as “not toxic” (MTS; up to 100 µM).

Repeated from above:
CC(=O)OC[C@H]1O[C@@H](Sc2sc(C(=O)c3ccc(C)cc3)c(N)c2-c2nc3ccccc3s2)[C@H](OC(C)=O)[C@@H](OC(C)=O)[C@H]1OC(C)=O: “maximum non-toxic concentration” 100 µg/mL (cytotoxicity; 72 h).
Nc1ccn(C2OC(CO)C3CC=CCC32)c(=O)n1 (mixture of isomers) gave an IC50 of greater than 100 µM (cytotoxicity; 3 days).
With CN[C@@H]1[C@H](O)[C@H](NC)[C@H]2O[C@]3(O)[C@H](O[C@@H]2[C@H]1O)O[C@H](C)C[C@@]3(O)CNCc1ccc(Cl)cc1 the IC50 was greater than 100 µg/mL.
COc1cc(C2COc3cc(O)cc(O)c3C2=NN)c(OC)cc1O (stereo not drawn) has an IC50 of 134 ± 1.56 µM (cytotoxicity, MTT; 72 h, 10% fetal bovine serum).
